Results pooled from the literature.
Protocols differ between the studies behind these lines.
Organism: Bacillus subtilis

With `CC[C@H](C)[C@@H]1NC(=O)[C@@H](NC(=O)[C@H](CCCCN)NC(=O)[C@H](CC(C)C)NC(=O)[C@H](CC(C)C)NC(=O)CNC(C)=O)CN(C)C(=O)c2ccc(=O)n(c2)CC[C@@H](C(=O)N[C@@H](CC(C)C)C(N)=O)NC(=O)[C@H]([C@@H](C)O)NC(=O)[C@H](CCCCN)NC1=O` the MIC was 31 µg/mL (ATCC 6051, Mueller-Hinton broth; 20 h, 37 °C).
`CN[C@@H]1[C@H](O)[C@H](NC)[C@H]2O[C@]3(O)[C@H](O[C@@H]2[C@H]1O)O[C@H](C)C[C@@]3(O)CNCc1ccc(F)cc1` has an MIC of 3.1 µg/mL (ATCC 23857).
For `CC(C)C[C@@H]1NC(=O)[C@H](CCN)NC(=O)CSC[C@@H](C(=O)N[C@@H](CCN)C(N)=O)NC(=O)[C@H](CC(C)C)NC(=O)[C@H](CC(C)C)NC(=O)[C@H](CC(C)C)NC(=O)[C@@H]2CSCC(=O)N[C@@H](CCN)C(=O)N[C@@H](CC(C)C)C(=O)N[C@@H](CCN)C(=O)N[C@@H](CCCCNC(=O)[C@H](CCN)NC1=O)C(=O)N[C@@H](CCN)C(=O)N[C@@H](CC(C)C)C(=O)N[C@@H](CC(C)C)C(=O)N2`, the MIC was 4 µg/mL (BR 151; 18 h).
For `CC[C@H](C)[C@H](N)C1=N[C@H](C(=O)N[C@@H](CC(C)C)C(=O)N[C@H](CCC(=O)O)C(=O)N[C@H](C(=O)N[C@H]2CCCCNC(=O)[C@H](CC(N)=O)NC(=O)[C@@H](CC(=O)O)NC(=O)[C@H](Cc3c[nH]cn3)NC(=O)[C@@H](Cc3ccc(-c4ccccc4)cc3)NC(=O)[C@H]([C@@H](C)CC)NC(=O)[C@@H](CCCN)NC2=O)[C@@H](C)CC)CS1`, the MIC was 1 µg/mL (168; 18 h, 37 °C, added: ZnSO4 0.3 mM).
`CC(C)C[C@H](NC(=O)[C@H](CC(C)C)NC(=O)[C@H](CCCCN)NC(=O)CNC(=O)[C@H](CC(C)C)NC(=O)[C@H](CC(C)C)NC(=O)[C@H](CO)NC(=O)[C@H](CC(C)C)NC(=O)[C@H](CC(C)C)NC(=O)[C@H](CO)NC(=O)[C@H](CC(C)C)NC(=O)[C@H](CC(C)C)NC(=O)CN)C(N)=O` has an MIC of greater than 120 µM (broth microdilution).
`CC[C@H](C)[C@H](NC(=O)[C@@H](Cc1ccccc1)NC)C(=O)OC[C@H](N)C(=O)N[C@H](CCCNC(=N)N)C(=O)N[C@@H](C(=O)N[C@H](C(=O)OC[C@H](N)C(=O)N[C@H]1C(=O)N[C@@H](C)C(=O)N[C@@H](CC(C)C)C(=O)N[C@@H]([C@@H](C)CC)C(=O)O[C@H]1C)[C@@H](C)CC)[C@@H](C)CC` gave an MIC of 0.0156 to 0.0312 µg/mL (broth microdilution; ATCC 6051, Mueller-Hinton broth; 16 h, 37 °C).
`CC[C@H](C)[C@@H]1NC(=O)CNC(=O)[C@H](CCCCN)NC(=O)[C@H](C)NC(=O)[C@H](CCC(=O)O)NC(=O)[C@H](Cc2ccccc2)NC(=O)[C@H](CO)NC(=O)[C@H](CC(C)C)NC(=O)[C@H](C(C)C)NC(=O)[C@H](CC(=O)O)NC(=O)[C@@H](NC(=O)[C@@H](NC(=O)[C@@H](N)C(C)C)[C@@H](C)O)CSSC[C@@H]2NC(=O)[C@H](CO)NC(=O)CNC(=O)CNC(=O)[C@H](CCCCN)NC(=O)[C@H](CCCCN)NC(=O)[C@H](CCCNC(=N)N)NC(=O)[C@H](CC(C)C)NC(=O)[C@H](C)NC(=O)[C@H]([C@@H](C)CC)NC(=O)[C@@H]3CSSC[C@@H](C(=O)N[C@@H](CCCNC(=N)N)C(=O)N[C@@H](CC(N)=O)C(=O)O)NC(=O)[C@H](C(C)C)NC(=O)[C@H](CSSC[C@H](NC(=O)[C@H](C)NC(=O)[C@H](CO)NC(=O)[C@H](Cc4c[nH]cn4)NC(=O)[C@H](CC(N)=O)NC(=O)[C@H](C(C)C)NC(=O)[C@H](C)NC1=O)C(=O)N[C@@H](C)C(=O)N[C@@H](CC(C)C)C(=O)N[C@@H](Cc1c[nH]cn1)C(=O)N3)NC(=O)[C@H](C(C)C)NC(=O)CNC(=O)[C@H](CC(N)=O)NC(=O)[C@H](CCC(N)=O)NC2=O` gave an MIC of 1.6 µM (broth microdilution; KCTC 3068; 16 h, 37 °C).
With `CC(C)C[C@@H]1NC(=O)CSC[C@@H]2NC(=O)[C@H](CC(C)C)NC(=O)[C@H](CCCCN)NC(=O)[C@H](CCCCN)NC(=O)[C@H](CCCCNC(=O)[C@H](CCCCN)NC(=O)[C@H](CC(C)C)NC1=O)NC(=O)[C@H](CCCCN)NC(=O)[C@H](CC(C)C)NC(=O)[C@H](CC(C)C)NC(=O)CSC[C@@H](C(=O)N[C@@H](CCCCN)C(N)=O)NC(=O)[C@H](CC(C)C)NC(=O)[C@H](CC(C)C)NC(=O)[C@H](CC(C)C)NC2=O` the MIC was 16 µg/mL (BR 151; 18 h).
`CC[C@H](C)[C@H](NC(=O)CNC(=O)[C@H](CC(N)=O)NC(=O)[C@H](CCCNC(=N)N)NC(=O)[C@H](CS)NC(=O)[C@H](CCCNC(=N)N)NC(=O)CNC(=O)CNC(=O)[C@H](CCCCN)NC(=O)[C@H](Cc1ccc(O)cc1)NC(=O)[C@H](CCCNC(=N)N)NC(=O)[C@H](CCCCN)NC(=O)[C@@H](NC(=O)[C@H](CC(C)C)NC(=O)[C@H](CS)NC(=O)[C@H](Cc1c[nH]cn1)NC(=O)[C@H](C)NC(=O)[C@H](C)NC(=O)[C@H](CS)NC(=O)[C@H](C)NC(=O)[C@H](CO)NC(=O)[C@H](Cc1c[nH]cn1)NC(=O)[C@H](CC(N)=O)NC(=O)[C@H](CC(C)C)NC(=O)[C@H](CO)NC(=O)CNC(=O)[C@H](Cc1c[nH]c2ccccc12)NC(=O)[C@@H]1CCCN1C(=O)[C@@H](NC(=O)[C@H](CO)NC(=O)[C@H](C)NC(=O)[C@H](CO)NC(=O)[C@H](CC(C)C)NC(=O)[C@H](CC(C)C)NC(=O)[C@H](CC(=O)O)NC(=O)[C@H](CS)NC(=O)[C@@H](NC(=O)[C@H](C)N)[C@@H](C)O)[C@@H](C)O)[C@@H](C)O)C(=O)N[C@@H](CS)C(=O)N[C@@H](CCCNC(=N)N)C(=O)N[C@@H](CS)C(=O)N[C@@H](CCCNC(=N)N)C(=O)N[C@@H](CCCNC(=N)N)C(N)=O` has an MIC of 7 µg/mL.
The MIC of `CCCCCCCCCCCCCCCCCCSCC1OC(OC2C(N)CC(N)C(OC3OC(CN)C(O)CC3N)C2O)C(O)C(N)C1O` (centres unmarked) is reported as greater than 150 µg/mL (168 AAC(6')/APH(2'') plasmid).
`CC[C@H](C)[C@H](NC(=O)[C@H](CCCN)NC(=O)[C@H](CC(N)=O)NC(=O)[C@H](Cc1c[nH]c2ccccc12)NC(=O)[C@H](Cc1ccccc1)NC(=O)[C@H](CCCN)NC(=O)[C@H](CCCNC(=N)N)NC(=O)[C@H](CC(C)C)NC(=O)[C@H](Cc1c[nH]c2ccccc12)NC(=O)[C@H](CCCN)NC(=O)[C@H](CCCNC(=N)N)NC(=O)[C@H](CC(C)C)NC(=O)CNC(C)=O)C(=O)N[C@@H](CCCN)C(=O)N[C@@H](CCCNC(=N)N)C(N)=O` gave an MIC of 3.12 µM (broth microdilution; ATCC 6633).
`NCCCC[C@H](NC(=O)[C@@H]1CSCC(=O)N[C@@H](CCCCN)C(=O)N[C@@H](Cc2ccccc2)C(=O)N[C@@H](CCCCN)C(=O)N[C@H]2CCCCNC(=O)[C@H](CCCCN)NC(=O)[C@H](Cc3ccccc3)NC(=O)[C@H](CCCCN)NC(=O)CSC[C@H](NC(=O)[C@H](Cc3ccccc3)NC(=O)[C@H](Cc3ccccc3)NC(=O)[C@H](CCCCN)NC2=O)C(=O)N[C@@H](Cc2ccccc2)C(=O)N[C@@H](Cc2ccccc2)C(=O)N[C@@H](Cc2ccccc2)C(=O)N1)C(N)=O` gave an MIC of 2 µg/mL (BR 151; 18 h).
`CC[C@H](C)[C@H](N)C1=N[C@H](C(=O)N[C@@H](CC(C)C)C(=O)N[C@H](CCC(=O)O)C(=O)N[C@H](C(=O)N[C@H]2CCCCNC(=O)[C@H](CC(N)=O)NC(=O)[C@@H](CC(=O)O)NC(=O)[C@H](Cc3c[nH]cn3)NC(=O)[C@@H](Cc3ccccc3)NC(=O)[C@H](Cc3ccccc3)NC(=O)[C@@H](CCCN)NC2=O)[C@@H](C)CC)CS1` gave an MIC of 32 µg/mL (168; 18 h, 37 °C, added: ZnSO4 0.3 mM).
With `CN(C)CCCNCCCNC(=O)[C@@H]1NC(=O)[C@@H]2Cc3ccc(cc3)Oc3cc4cc(c3O)-c3ccc5c(c[nH]c5c3)C[C@@H](NC(=O)C(N)c3ccc(O)cc3)C(=O)N[C@H](c3ccc(O)cc3)C(=O)N[C@H]4C(=O)N[C@@H](C(=O)N2C)c2ccc(cc2)Oc2cc1ccc2O` (some centres unmarked) the MIC was 8 µg/mL (168, Mueller-Hinton broth).
The MIC of `CC(C)C[C@H](NC(=O)[C@@H]1CSCC(=O)N[C@@H](CCCCN)C(=O)N[C@@H](CC(C)C)C(=O)N[C@@H](CCCCN)C(=O)NCCCC[C@@H]2NC(=O)[C@H](CCCCN)NC(=O)[C@H](CC(C)C)NC(=O)[C@H](CCCCN)NC(=O)CSC[C@H](NC(=O)[C@H](CC(C)C)NC(=O)[C@H](CC(C)C)NC(=O)[C@H](CCCCN)NC2=O)C(=O)N[C@@H](CCCCN)C(=O)N[C@@H](CC(C)C)C(=O)N[C@@H](CCCCN)C(=O)N1)C(N)=O` is reported as 32 µg/mL (BR 151; 18 h).
`CN1C(=O)[C@@H]2NC(=O)[C@@H]3NC(=O)[C@@H](c4ccc(O)cc4)NC(=O)[C@H](NC(=O)C(NCc4ccccn4)c4ccc(O)cc4)Cc4c[nH]c5cc(ccc45)-c4cc3cc(c4O)Oc3ccc(cc3)C[C@H]1C(=O)N[C@@H](C(=O)O)c1ccc(O)c(c1)Oc1ccc2cc1` (some centres unmarked) gave an MIC of 4 µg/mL (168, Mueller-Hinton broth).
With `CC(C)C[C@@H]1NC(=O)[C@H](CC(C)C)NC(=O)[C@H](CCCCN)NC(=O)CSC[C@@H](C(N)=O)NC(=O)[C@H](CC(C)C)NC(=O)[C@H](CCCCN)NC(=O)[C@H](CCCCN)NC(=O)[C@@H]2CSCC(=O)N[C@@H](CCCCN)C(=O)N[C@@H](CC(C)C)C(=O)N[C@@H](CC(C)C)C(=O)N[C@@H](CCCCNC1=O)C(=O)N[C@@H](CCCCN)C(=O)N[C@@H](CC(C)C)C(=O)N2` the MIC was 16 µg/mL (BR 151; 18 h).
`CN1C(=O)[C@@H]2NC(=O)[C@@H]3NC(=O)[C@@H](c4ccc(O)cc4)NC(=O)[C@H](NC(=O)C(NCc4cc(Cl)cc(Cl)c4Cl)c4ccc(O)cc4)Cc4c[nH]c5cc(ccc45)-c4cc3cc(c4O)Oc3ccc(cc3)C[C@H]1C(=O)N[C@@H](C(=O)O)c1ccc(O)c(c1)Oc1ccc2cc1` (some centres unmarked) gave an MIC of 4 µg/mL (168, Mueller-Hinton broth).
The MIC of `CC[C@@H](C)[C@@H](NC(=O)[C@@H](CCCCN)NC(=O)[C@H]1CCCN1C(=O)[C@H](NC(=O)[C@@H](CC(C)C)NC(=O)[C@@H](CCCCN)NC(=O)[C@@H](CC(C)C)NC(=O)[C@H](NC(=O)[C@@H](CO)NC(=O)CNC(=O)[C@@H](Cc1ccccc1)NC(=O)[C@H](N)Cc1ccccc1)C(C)C)[C@H](C)CC)C(=O)N[C@H](CC(C)C)C(N)=O` is reported as 6.25 µM (broth microdilution).
The MIC of `CC[C@H](C)[C@H](NC(=O)[C@@H](Cc1ccccc1)NC)C(=O)N[C@@H](CO)C(=O)N[C@H](CCC(N)=O)C(=O)N[C@@H](C(=O)N[C@H](C(=O)OC[C@H](N)C(=O)N[C@H]1C(=O)N[C@@H](C)C(=O)N[C@@H](C2CCCCC2)C(=O)N[C@@H]([C@@H](C)CC)C(=O)O[C@H]1C)[C@@H](C)CC)[C@@H](C)CC` is reported as 0.0625 µg/mL (broth microdilution; ATCC 6051, Mueller-Hinton broth; 16 h, 37 °C).

Some of these lines once more:
The MIC of `CCCCCCCCCCCCCCCCCCSCC1OC(OC2C(N)CC(N)C(OC3OC(CN)C(O)CC3N)C2O)C(O)C(N)C1O` (centres unmarked) is reported as greater than 150 µg/mL (168 AAC(6')/APH(2'') plasmid).
`CC(C)C[C@H](NC(=O)[C@H](CC(C)C)NC(=O)[C@H](CCCCN)NC(=O)CNC(=O)[C@H](CC(C)C)NC(=O)[C@H](CC(C)C)NC(=O)[C@H](CO)NC(=O)[C@H](CC(C)C)NC(=O)[C@H](CC(C)C)NC(=O)[C@H](CO)NC(=O)[C@H](CC(C)C)NC(=O)[C@H](CC(C)C)NC(=O)CN)C(N)=O` has an MIC of greater than 120 µM (broth microdilution).
For `CC[C@H](C)[C@H](N)C1=N[C@H](C(=O)N[C@@H](CC(C)C)C(=O)N[C@H](CCC(=O)O)C(=O)N[C@H](C(=O)N[C@H]2CCCCNC(=O)[C@H](CC(N)=O)NC(=O)[C@@H](CC(=O)O)NC(=O)[C@H](Cc3c[nH]cn3)NC(=O)[C@@H](Cc3ccc(-c4ccccc4)cc3)NC(=O)[C@H]([C@@H](C)CC)NC(=O)[C@@H](CCCN)NC2=O)[C@@H](C)CC)CS1`, the MIC was 1 µg/mL (168; 18 h, 37 °C, added: ZnSO4 0.3 mM).
